Experimental data pooled from the literature.
A part holds a random share of what one study measured.
Chain of UniProt Q99558 (whole entry, looked up): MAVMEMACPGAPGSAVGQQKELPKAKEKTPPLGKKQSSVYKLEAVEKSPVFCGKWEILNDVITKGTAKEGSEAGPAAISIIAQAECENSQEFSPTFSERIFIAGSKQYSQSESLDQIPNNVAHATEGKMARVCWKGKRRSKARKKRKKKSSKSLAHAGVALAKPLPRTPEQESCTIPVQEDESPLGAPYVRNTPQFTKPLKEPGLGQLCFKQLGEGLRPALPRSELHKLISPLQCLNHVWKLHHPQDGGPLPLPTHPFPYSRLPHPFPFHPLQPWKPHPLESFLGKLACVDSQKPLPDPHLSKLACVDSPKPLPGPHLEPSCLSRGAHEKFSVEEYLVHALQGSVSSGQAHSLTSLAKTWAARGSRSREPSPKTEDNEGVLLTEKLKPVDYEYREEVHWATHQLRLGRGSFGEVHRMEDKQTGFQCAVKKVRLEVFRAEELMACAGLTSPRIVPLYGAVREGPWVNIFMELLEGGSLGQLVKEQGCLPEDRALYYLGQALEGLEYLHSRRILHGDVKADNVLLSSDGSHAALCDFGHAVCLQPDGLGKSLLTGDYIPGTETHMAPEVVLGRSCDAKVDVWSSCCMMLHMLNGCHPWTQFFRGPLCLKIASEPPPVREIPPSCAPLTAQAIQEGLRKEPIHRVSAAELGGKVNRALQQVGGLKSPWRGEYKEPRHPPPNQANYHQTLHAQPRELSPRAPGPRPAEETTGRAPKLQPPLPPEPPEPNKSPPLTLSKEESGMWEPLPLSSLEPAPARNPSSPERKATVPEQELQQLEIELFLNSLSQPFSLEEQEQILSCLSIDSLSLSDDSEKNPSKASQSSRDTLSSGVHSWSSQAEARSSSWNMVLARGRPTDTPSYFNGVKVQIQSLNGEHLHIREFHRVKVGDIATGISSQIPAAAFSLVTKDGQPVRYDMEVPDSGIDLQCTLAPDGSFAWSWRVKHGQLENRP
Chain of UniProt Q9H3Y6 (whole entry, looked up): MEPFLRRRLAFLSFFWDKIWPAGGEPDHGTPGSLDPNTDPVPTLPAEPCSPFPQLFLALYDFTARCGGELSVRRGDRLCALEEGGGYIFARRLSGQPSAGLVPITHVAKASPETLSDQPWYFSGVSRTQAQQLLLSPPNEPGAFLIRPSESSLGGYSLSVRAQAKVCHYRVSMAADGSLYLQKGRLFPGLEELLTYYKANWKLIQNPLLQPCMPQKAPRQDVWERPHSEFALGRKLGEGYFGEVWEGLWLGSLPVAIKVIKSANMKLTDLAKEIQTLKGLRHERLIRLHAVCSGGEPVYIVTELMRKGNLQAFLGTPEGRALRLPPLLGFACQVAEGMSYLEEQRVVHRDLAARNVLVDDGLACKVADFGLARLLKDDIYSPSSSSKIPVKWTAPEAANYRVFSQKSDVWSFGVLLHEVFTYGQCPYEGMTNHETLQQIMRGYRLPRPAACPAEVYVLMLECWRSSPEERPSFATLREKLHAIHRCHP
Chain of UniProt P51812 (whole entry, looked up): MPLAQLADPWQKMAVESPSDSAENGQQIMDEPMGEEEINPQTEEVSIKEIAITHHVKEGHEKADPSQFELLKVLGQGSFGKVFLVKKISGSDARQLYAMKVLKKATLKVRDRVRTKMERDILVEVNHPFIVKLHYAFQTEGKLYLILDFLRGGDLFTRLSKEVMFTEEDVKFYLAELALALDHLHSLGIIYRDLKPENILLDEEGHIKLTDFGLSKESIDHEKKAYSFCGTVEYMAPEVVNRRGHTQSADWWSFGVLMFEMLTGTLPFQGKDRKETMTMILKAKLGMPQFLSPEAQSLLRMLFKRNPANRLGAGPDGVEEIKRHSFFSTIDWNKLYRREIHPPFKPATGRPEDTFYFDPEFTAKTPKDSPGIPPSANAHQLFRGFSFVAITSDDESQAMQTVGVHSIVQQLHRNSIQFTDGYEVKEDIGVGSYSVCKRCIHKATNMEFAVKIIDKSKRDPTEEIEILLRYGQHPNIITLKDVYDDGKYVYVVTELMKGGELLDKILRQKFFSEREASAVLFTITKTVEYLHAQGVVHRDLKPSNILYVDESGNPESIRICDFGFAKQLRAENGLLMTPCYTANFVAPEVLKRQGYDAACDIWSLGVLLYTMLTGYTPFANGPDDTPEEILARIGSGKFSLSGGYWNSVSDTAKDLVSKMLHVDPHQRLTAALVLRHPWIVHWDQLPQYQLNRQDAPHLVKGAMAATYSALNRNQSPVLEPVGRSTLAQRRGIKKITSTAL
Chain of UniProt O76039 (whole entry, looked up): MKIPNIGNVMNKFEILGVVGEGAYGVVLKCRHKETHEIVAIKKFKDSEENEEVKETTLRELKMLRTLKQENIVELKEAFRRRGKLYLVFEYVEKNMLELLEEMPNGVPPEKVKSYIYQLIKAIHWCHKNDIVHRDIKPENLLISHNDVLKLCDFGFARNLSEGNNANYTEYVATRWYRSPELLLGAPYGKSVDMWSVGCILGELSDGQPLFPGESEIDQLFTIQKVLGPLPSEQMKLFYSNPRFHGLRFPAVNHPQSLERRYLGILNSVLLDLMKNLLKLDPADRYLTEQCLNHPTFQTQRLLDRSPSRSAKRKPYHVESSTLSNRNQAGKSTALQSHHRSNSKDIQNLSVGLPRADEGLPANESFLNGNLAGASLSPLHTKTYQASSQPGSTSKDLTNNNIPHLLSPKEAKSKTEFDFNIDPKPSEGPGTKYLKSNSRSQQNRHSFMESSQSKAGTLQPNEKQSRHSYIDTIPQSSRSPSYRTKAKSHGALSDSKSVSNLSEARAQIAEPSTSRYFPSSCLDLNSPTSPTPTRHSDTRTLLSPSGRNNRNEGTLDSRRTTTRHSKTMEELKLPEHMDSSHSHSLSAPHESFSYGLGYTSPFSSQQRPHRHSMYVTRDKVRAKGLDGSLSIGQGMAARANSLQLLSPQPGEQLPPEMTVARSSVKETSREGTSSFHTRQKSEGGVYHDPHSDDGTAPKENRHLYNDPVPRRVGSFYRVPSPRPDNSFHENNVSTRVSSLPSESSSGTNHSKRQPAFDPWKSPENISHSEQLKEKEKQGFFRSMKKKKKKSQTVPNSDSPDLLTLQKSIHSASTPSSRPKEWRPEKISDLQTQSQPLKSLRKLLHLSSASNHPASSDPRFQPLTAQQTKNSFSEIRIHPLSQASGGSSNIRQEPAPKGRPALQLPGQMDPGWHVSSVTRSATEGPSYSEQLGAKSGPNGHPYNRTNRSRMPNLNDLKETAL

Sample 1
Structure (SMILES): CC(C)n1cnc(-c2ccc(F)cc2)c1-c1ncc(C(=O)Nc2ccc(N3CCN(C)CC3)cc2)[nH]1
It gave 0% for “patients with adverse event” (Phase 2a trial, refers to: blood lactate dehydrogenase increased; human, idiopathic pulmonary fibrosis; all compound arms total, grade 3).
Phase 2a trial, refers to: haemorrhoids; human, idiopathic pulmonary fibrosis; 30 mg once daily, grade 3 — “patients with adverse event”: 0%.
For Phase 2a trial, refers to: haemoptysis; human, idiopathic pulmonary fibrosis; 60 mg once daily, grade 5: “patients with adverse event” read 0%.
It gave 0% for “patients with adverse event” (refers to: prostatic calcification, maximum grade 4; idiopathic pulmonary fibrosis patients; oral, 30 mg once daily).
For Phase 2a trial, refers to: blood lactate dehydrogenase increased; human, idiopathic pulmonary fibrosis; 30 mg once daily, grade 5: “patients with adverse event” read 0%.
It gave 0% for “patients with adverse event” (Phase 2a trial, refers to: blood urea increased; human, idiopathic pulmonary fibrosis; all compound arms total, grade 4).
The “patients with adverse event” was 0% (Phase 2a trial, refers to: haemoptysis; human, idiopathic pulmonary fibrosis; 30 mg once daily, grade 1).
Phase 2a trial, refers to: blood creatinine increased; human, idiopathic pulmonary fibrosis; 60 mg once daily, grade 3 — “patients with adverse event”: 0%.

Sample 2 — read-out: enzyme activity; action: inhibitor; concentration: 0.5 µM; relative to: control
Target: Testis-specific serine/threonine-protein kinase 1 (TSSK1B, Homo sapiens, UniProt Q9BXA7)
Chain of UniProt Q9BXA7 (whole entry, looked up): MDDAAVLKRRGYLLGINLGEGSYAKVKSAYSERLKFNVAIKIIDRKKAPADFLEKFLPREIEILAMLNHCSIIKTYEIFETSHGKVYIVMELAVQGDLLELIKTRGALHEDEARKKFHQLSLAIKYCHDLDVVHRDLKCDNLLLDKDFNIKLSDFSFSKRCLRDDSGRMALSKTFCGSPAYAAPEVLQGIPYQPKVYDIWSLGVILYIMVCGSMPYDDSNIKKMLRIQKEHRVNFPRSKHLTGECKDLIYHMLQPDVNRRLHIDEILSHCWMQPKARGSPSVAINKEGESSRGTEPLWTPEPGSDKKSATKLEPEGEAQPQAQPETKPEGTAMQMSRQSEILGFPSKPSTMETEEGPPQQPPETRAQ
`Nc1nccc(-c2c(-c3ccc(F)cc3)ncn2C2CCNCC2)n1` gave a remaining activity of 106%.
`CC#CC(=O)Nc1cc2c(Nc3ccc(F)c(Cl)c3)ncnc2cn1` gave a remaining activity of 104%.
`COc1cc(Nc2c(C#N)cnc3cc(OCCCN4CCN(C)CC4)c(OC)cc23)c(Cl)cc1Cl` gave a remaining activity of 79.2%.
With `O=C1NC(=O)C(c2c[nH]c3ccccc23)=C1c1c[nH]c2ccccc12` the remaining activity was 106%.
`CC(C)(C)n1nc(Cc2cccc3ccccc23)c2c(N)ncnc21` gave a remaining activity of 91.7%.
`Cc1ccc(NC2=CC(=O)c3sc(C)nc3C2=O)cc1` gave a remaining activity of 115%.
`CCCC(=O)Oc1ccc2[nH]c(C(=O)c3cc4ccccc4[nH]3)cc2c1` gave a remaining activity of 78.1%.
For `Nc1nc(Nc2ccc(S(N)(=O)=O)cc2)nn1C(=O)c1c(F)cccc1F`, the remaining activity was 85.5%.
`N#CC(=C(N)Sc1ccc(N)cc1)c1ccccc1C(F)(F)F` gave a remaining activity of 103%.
`CCc1[nH]c(-c2ccc(OC)cc2)nc1-c1ccncc1` gave a remaining activity of 106%.

Sample 3 — read-out: cell-free assay; technique: competition with immobilised ligand; concentration: 1 µM
Compound: CNC(=O)Nc1ccc2c(c1)[C@@]1(CC2)OC(=O)N(CC(=O)N(Cc2ccc(F)cc2)[C@@H](C)C(F)(F)F)C1=O
It gave 82% for remaining binding (CDKL5 (Homo sapiens, UniProt O76039)).
It gave 88% for remaining binding (Tyrosine-protein kinase ABL1, phosphorylated (ABL1, Homo sapiens, UniProt P00519, M351T)).
It gave 68% for remaining binding (MAP3K14 (Homo sapiens, UniProt Q99558)).
It gave 75% for remaining binding (Ribosomal protein S6 kinase alpha-3, N-terminal kinase domain (RPS6KA3, Homo sapiens, UniProt P51812)).
For SRMS (Homo sapiens, UniProt Q9H3Y6): remaining binding read 88%.

Other studies, line by line
The IC50 of `Cc1cc2c(C(N)=O)c(N)n(-c3c(C)ccc(O)c3C)c2nc1C` is reported as 1030 nM (biomarker-negative wild-type cell lines; cell growth; 168 h).
